Measurements collected from several papers.
Each numbered part is a random draw from the data of one study; scales do not carry over between parts.
Chain of UniProt Q9UK32 (whole entry, looked up): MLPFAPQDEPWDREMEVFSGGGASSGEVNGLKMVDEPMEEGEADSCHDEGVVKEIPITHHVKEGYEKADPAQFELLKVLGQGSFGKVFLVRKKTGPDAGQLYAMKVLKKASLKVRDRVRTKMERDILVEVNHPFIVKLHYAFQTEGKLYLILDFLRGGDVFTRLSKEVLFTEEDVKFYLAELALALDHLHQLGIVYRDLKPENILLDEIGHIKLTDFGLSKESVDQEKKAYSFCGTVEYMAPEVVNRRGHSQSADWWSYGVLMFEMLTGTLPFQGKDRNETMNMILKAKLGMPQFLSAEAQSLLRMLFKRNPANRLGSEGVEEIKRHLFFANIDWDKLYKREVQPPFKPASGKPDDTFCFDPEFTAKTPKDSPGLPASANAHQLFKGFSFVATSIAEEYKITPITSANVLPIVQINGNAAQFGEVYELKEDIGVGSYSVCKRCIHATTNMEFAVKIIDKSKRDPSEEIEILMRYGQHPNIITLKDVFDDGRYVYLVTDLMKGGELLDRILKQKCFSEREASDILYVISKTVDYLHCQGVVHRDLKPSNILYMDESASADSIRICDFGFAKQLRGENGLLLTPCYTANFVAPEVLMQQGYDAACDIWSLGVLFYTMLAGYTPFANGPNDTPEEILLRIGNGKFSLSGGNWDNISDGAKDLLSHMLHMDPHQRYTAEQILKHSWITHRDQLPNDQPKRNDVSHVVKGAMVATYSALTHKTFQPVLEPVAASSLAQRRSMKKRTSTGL

Study 1 — technique: universal PBM; molecule type: double-stranded DNA, one strand shown; matrix: in vitro; concentration: 600 nM; direction: higher = stronger binding
Target: Sal-like protein 4, full length isoform A (SALL4, Homo sapiens, UniProt Q9UJQ4, residues 1-1053)
Chain of UniProt Q9UJQ4 (whole entry, looked up): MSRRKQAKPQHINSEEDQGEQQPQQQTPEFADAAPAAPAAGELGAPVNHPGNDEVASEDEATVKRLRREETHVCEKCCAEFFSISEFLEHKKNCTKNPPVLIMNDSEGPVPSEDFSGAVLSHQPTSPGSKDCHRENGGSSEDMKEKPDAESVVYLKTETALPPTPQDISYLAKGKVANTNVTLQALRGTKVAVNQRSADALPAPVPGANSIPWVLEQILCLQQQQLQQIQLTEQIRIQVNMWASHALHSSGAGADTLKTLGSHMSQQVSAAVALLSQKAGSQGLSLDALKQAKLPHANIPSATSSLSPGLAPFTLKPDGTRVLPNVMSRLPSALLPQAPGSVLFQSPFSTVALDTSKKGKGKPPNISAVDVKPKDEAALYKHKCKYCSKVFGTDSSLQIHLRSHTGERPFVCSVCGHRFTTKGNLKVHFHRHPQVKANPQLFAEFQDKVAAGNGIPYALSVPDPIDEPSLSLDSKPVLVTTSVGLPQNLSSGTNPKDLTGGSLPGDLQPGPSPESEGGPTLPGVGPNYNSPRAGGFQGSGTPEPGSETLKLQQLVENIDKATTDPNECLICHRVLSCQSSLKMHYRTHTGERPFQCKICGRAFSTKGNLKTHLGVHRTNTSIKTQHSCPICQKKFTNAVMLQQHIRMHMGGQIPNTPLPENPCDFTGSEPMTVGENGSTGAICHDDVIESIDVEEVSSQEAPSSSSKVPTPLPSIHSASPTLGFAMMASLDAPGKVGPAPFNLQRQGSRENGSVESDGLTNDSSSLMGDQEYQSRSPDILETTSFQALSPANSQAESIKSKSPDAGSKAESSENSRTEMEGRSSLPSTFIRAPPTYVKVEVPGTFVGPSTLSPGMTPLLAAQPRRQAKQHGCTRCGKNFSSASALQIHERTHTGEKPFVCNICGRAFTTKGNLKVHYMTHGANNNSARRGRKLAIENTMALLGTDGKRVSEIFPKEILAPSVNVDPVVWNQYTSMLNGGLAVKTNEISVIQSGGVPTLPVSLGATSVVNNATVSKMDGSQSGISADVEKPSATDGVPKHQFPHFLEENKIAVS
Notes: 8-mer, flanks averaged, mean of replicates
`CAGAGAAA` has an E-score of 0.0343.
`ACTTTCTC` gave an E-score of 0.0366.
With `CATTGACA` the E-score was 0.0955.
`TGAGTCCA` has an E-score of -0.0368.
The E-score of `CGGGTCTC` is reported as -0.418.
With `CTCATGTA` the E-score was 0.187.
The E-score of `GGCCACCA` is reported as -0.222.
The E-score of `GTGACTGA` is reported as -0.0135.

Study 2 — technique: protein-binding microarray; molecule type: double-stranded DNA, one strand shown; matrix: in vitro; concentration: 2540 nM top; notes: 60-bp whole probe; with: salmon DNA 0.4 mg/ml; baseline: random background probes; direction: higher = stronger binding; shared flanks, not repeated: GCCTAGCAC … GTCTTGATTCGCTTGACGCTGCTG
Target: Interferon regulatory factor 3, full length, phosphomimetic (IRF3, Homo sapiens, UniProt Q14653, residues 1-427, S386D/S396D/S398D/S402D/T404D/S405D)
Construct (chain): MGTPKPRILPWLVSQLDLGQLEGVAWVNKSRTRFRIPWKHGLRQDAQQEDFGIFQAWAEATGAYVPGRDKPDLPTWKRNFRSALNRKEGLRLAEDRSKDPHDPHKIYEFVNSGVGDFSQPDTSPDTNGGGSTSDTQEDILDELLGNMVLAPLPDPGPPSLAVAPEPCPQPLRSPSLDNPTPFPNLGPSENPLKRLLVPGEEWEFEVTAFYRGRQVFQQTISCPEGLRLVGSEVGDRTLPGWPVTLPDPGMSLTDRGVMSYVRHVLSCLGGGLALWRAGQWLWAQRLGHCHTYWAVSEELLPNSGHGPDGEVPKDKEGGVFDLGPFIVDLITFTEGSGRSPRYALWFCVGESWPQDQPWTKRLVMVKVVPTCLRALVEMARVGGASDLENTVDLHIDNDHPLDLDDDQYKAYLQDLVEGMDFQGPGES
`GACGAACTGAGTCTCGGGACGTGCTAG` — result for “fitted relative affinity”: -0.287 z-score.
`TGCTTTCCAATTCTCTTTTCGTGCTAG` — result for “fitted relative affinity”: 6.56 z-score.
`GACGAACCGAGACTGGAGACGTGCTAG`: “fitted relative affinity” -0.148 z-score.
For `TTAGGTTTCGAAACTGGGTTAGTGCTA`, “fitted relative affinity” read 4.86 z-score.
For `GGCGATTTCAGTTTCGAGACGTGCTAG`, “fitted relative affinity” read 4.58 z-score.
`TTAGGTTTCGTACTGGGTTAGTGCTAG`: “fitted relative affinity” 3.72 z-score.
For `GACGGCATCCTTTTCCTGACGTGCTAG`, “fitted relative affinity” read 1.32 z-score.
Under “fitted relative affinity”, `TTAGGACTGCTACTGCTTGAGTGCTAG` is recorded as -0.57 z-score.

Study 3 — technique: aptamer microarray, sandwich; molecule type: DNA with 2'F-ANA; matrix: in vitro; concentration: 200 nM; with: Cy3 exosite-II aptamer, 400 nM; direction: higher = stronger binding; oligonucleotide: GGTTGGTGTGGTTGG
Target: Prothrombin, mature alpha-thrombin (F2, Homo sapiens, UniProt P00734)
Notes: whole 15-mer aptamer, many near background
Under “mean fluorescence intensity”, `2'F-ANA at 1 2 3 6 7 8 11 14` is recorded as 68 a.u.
Under “mean fluorescence intensity”, `2'F-ANA at 1 2 3 6 7 10 15` is recorded as 64.4 a.u.
`2'F-ANA at 1 2 3 4 5 7 9 10 11 12` — result for “mean fluorescence intensity”: 56.1 a.u.
`2'F-ANA at 1 3 4 5 8 11 12` — result for “mean fluorescence intensity”: 105 a.u.
For `2'F-ANA at 3 6 7 8 9 10 11 13`, “mean fluorescence intensity” read 418 a.u.
`2'F-ANA at 3 4 5 7 9 11 13 14`: “mean fluorescence intensity” 48.7 a.u.
`2'F-ANA at 1 2 8 9 13 15`: “mean fluorescence intensity” 139 a.u.
`2'F-ANA at 2 4 6 9 12 15`: “mean fluorescence intensity” 461 a.u.

Single results of other studies
For CN(C)S(=O)(=O)c1ccc2c(c1)/C(=C/c1cc3c([nH]1)CCCC3)C(=O)N2, the remaining activity was 67.4% (Ribosomal protein S6 kinase alpha-6 (RPS6KA6, Homo sapiens, UniProt Q9UK32); enzyme activity, inhibitor; 0.5 µM; baseline: control).

Repeated from above (study 2):
`GACGAACTGAGTCTCGGGACGTGCTAG` — result for “fitted relative affinity”: -0.287 z-score.
For `GGCGATTTCAGTTTCGAGACGTGCTAG`, “fitted relative affinity” read 4.58 z-score.
`GACGAACCGAGACTGGAGACGTGCTAG`: “fitted relative affinity” -0.148 z-score.
